Assay results collected from several papers.
Each numbered part is a random draw from the data of one study; scales do not carry over between parts. Substitutions count along the parent as printed.

Study 1
Target: ABI1, truncated, D143A, DHFR fusion (Arabidopsis thaliana)
Method: DHFR PCA, deep sequencing
Medium: yeast
Notes: methotrexate growth selection, single substitutions
With: (+)-ABA 0 µM
Relative to: wild-type fitted maximum
Reading: higher = stronger binding
Starting sequence: PYL1, truncated, DHFR fusion (Arabidopsis thaliana); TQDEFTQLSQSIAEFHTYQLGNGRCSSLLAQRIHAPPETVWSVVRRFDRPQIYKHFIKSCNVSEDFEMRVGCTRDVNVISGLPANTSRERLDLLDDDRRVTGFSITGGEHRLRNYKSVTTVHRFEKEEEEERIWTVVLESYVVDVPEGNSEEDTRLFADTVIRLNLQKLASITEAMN
Variant | relative binding score [%]
P83C | 13.2
P36Q | 7.9
N177V | 46.5
D153F | -9.19
A84M | 49.7
R45M | 3.15
N177D | 45.2
S104V | -0.284
I162P | 3.42
T106K | -1.12
V137S | 0.459
G107K | -0.147
S42E | 32.9
S26D | 0.619
D159I | -12.2
S171N | 31.1
S117W | 3.67
E139M | 5.3
N77E | 59

Study 2
Target: RING finger protein unkempt homolog, zinc fingers 1-6, GST-SBP tag (UNK, Homo sapiens, UniProt Q9C0B0, residues 30-357)
Method: RNA Bind-n-Seq
Form: RNA
Medium: in vitro
Tested at: not given
Notes: RNA with constant flanks, ends assumed
Relative to: input RNA pool
Reading: higher = stronger binding
Shared flanks, not repeated: GGGAGUUCUACAGUCCGACGAUC … CAACAGAGGAUUGAGCAUCA
Target sequence (chain): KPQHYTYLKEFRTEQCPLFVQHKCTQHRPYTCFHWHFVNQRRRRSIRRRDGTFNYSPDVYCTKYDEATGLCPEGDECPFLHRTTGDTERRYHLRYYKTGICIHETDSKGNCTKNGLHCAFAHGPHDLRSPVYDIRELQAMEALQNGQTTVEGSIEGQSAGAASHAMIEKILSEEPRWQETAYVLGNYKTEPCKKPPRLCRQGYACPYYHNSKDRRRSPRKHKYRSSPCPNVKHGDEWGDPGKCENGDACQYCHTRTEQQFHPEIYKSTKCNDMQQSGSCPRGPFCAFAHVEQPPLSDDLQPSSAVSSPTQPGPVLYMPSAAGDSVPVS
Strand | bound/input enrichment
AAGAUAAACAGAAUAGACCAUGACCGGAGAGCGAUGGCUACUUUGCUUAGCAAGUUCCGGACCGACUUUUCUGAUAUCAUGGUUCUAGGAGAUAUCAAUACCAAACCAAAGAAAGAAAAU | 0.34 ratio
GUAGCCUUAUAUGAAGAACCAGAGAAGCCCACCAGUGCUCUGGAUUUUUUAAAGCAUCACUCCGGAGCUGCUACCCCGGAAAACCCAGAAAUAGAGCUGCUUCGCCUAGAAUUGGCAGAA | 0.668 ratio
UUUGUUGAAAUACUUGUUCCAGUUGCUGCUGCUGUUAAAAAUGAAGUAAAUGUUCCCUGCCUCCGAAAUUUUGUGGAAAGCCUGUAUGACACCACGCUGGAACUUUCUUCUCGAAAGAAG | 0.474 ratio
GUGAAGGCUGAGAUACCAUUGAAUGAGCAAACCACUUUAAGUAAGGAGAAUUACCUGUUCACCCGAGGCCAAACAUUUGAUGAAAAGACCCUAGCCAGAGAUUUAAUUCAGGCAGCACAG | 0.318 ratio
UACAUUGUAGUCAGCUACUUUUCAGAGCUUUUCCAUUUGCUGUCUCAGGGAAAUCGUAAGACCCGGAAUCUUGUUUUGAAAGUAUUUUUGAAUAUGUCUGAAAAUCCCAAGGCAGCCAGA | 0.306 ratio
AGACCUUUGGGGACAACUAAAGCUGCGGGAUACAAAGUCAGCCCAGGCAGACCUCCAGGCCGCAUUAAAGCUCUAUCCCGUCUUGCCGAUCUUGGUUAUGGCUGUGGCACUGCUGCUUUU | 0.0594 ratio
GAACAGAUUGUGGAUUUCUUAAAGAAGAAGCAUGAUUUUGUAGACCUUAUUAUAAAGCACACCGGAACUUCUGCUAUCAUGGAUUUGUUGCUCAGGCUCCUGACGUGUAUCGAACCUCCA | 0.53 ratio

Study 3
Target: Sal-like protein 4, full length isoform B (SALL4, Homo sapiens, UniProt Q9UJQ4-2, residues 1-616)
Method: universal PBM
Form: double-stranded DNA, one strand shown
Medium: in vitro
Tested at: not given
Notes: 8-mer, flanks averaged, mean of replicates
Reading: higher = stronger binding
Target sequence (chain): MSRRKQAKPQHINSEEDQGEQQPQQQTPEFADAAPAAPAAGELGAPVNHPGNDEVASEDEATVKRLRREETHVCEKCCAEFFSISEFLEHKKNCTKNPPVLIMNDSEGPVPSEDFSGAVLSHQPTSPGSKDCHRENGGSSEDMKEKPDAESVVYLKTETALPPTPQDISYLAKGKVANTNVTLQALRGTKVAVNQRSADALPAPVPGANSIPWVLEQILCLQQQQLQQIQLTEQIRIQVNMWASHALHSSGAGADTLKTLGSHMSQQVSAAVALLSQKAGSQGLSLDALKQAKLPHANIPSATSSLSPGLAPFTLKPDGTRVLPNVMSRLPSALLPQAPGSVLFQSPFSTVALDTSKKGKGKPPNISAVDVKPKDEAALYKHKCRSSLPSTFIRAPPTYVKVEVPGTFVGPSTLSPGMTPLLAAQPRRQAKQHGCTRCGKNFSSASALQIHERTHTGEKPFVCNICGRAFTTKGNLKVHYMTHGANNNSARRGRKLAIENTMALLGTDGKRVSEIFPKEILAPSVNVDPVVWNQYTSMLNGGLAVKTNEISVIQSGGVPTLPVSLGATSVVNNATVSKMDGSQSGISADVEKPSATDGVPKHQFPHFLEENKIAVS
Strand | E-score
ATGGTTAG | 0.0156
AGGGTGGA | -0.1
AGACTTTC | 0.0335
AGGTTACT | 0.0361
AAGCCGAT | 0.0362
CATAAGTA | 0.226
GCCTTAAA | -0.0893
AAATCTTA | 0.251
ACCCACTG | -0.181
TAAGCGTA | 0.0889
GACCCTCA | -0.0569
CTGAATGC | -0.105
ACCCGTCT | -0.171
ACTTCAAC | 0.0818
TGGGGAAA | -0.0179
AAAGTGTC | 0.0546
ACCCGGCA | -0.281
CTGCGTCA | -0.066
GACGAATC | 0.0809
AATTAGGA | 0.212

Study 4
Target: CCNE2, cyclin fold, Cln2 fusion (human)
Method: yeast growth competition, sequencing
Medium: yeast
Notes: weak parent motif
Relative to: not given
Reading: higher = stronger binding
Starting sequence: LLGL2 docking peptide (human); KSLKKSLRQSFRR
Variant | normalised enrichment score
KSLKKSLAQSFRR [R8A] | 0.46
KSLKKSLRASFRR [Q9A] | 1.06
KSLKKSARQSFRR [L7A] | 0.863
KALKKSLRQSFRR [S2A] | 0.38
KSAKKSLRQSFRR [L3A] | 0.291
ASLKKSLRQSFRR [K1A] | 0.24

Study 5
Target: Ras GTPase-activating protein-binding protein 1, C-terminal RGG region (G3BP1, Homo sapiens, UniProt Q13283)
Chain of UniProt Q13283 (whole entry, looked up): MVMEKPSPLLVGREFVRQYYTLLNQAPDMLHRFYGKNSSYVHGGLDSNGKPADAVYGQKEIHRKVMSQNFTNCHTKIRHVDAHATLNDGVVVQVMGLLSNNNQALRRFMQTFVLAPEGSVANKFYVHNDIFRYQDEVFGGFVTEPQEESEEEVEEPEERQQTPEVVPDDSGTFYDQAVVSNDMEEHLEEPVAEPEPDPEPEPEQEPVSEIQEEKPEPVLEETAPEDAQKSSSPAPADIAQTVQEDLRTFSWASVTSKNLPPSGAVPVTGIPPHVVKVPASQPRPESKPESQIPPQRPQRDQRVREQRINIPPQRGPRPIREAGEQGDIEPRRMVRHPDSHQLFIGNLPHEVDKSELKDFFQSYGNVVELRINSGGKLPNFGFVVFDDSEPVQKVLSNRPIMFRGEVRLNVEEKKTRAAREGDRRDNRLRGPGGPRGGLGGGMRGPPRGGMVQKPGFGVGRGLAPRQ
Method: RNA Bind-n-Seq
Form: RNA
Medium: in vitro
Tested at: 1 µM
Notes: whole 134-nt RNA, ends assumed
With: 150 mM KCl
Relative to: input library
Reading: higher = stronger binding
Shared flanks, not repeated: GGGAGUUCUACAGUCCGACGAUC … UGGAAUUCUCGGGUGUCAAGG
Strand | log2 enrichment
ACCAUGCAGGUGGGCAUCUUUGGGAAGUGGGGCAAGGGGGGGAUAGGGAGGGGGGUAACACUUUGGGAACAGGUGGUCCCAAGUCGUUUC | 1.44
UGGGAGGUGGAUUUUGUUUAUUUUUUUAGCUCAUUUCCAGGGGUGGGAAUUUUUUUUUAAUAUGUGUCAUGAAUAAAGUGGUUUUUGAAA | 3.12
UGGGAGGUGGAUUUUGUUUAUUUUUUUAGCUCAUUUCCAGGGGUGGGAAUUUUUUUUUAAUAUGUGUCAUGAAUAAGGUUGUUUUUGAAA | 1.67
CAAGUCCUGUGCUACACAUCGUAUGUACCGAAUCGGGUUUGGGUUUGGGAAAGGGAAAGUAUUAUGUUACGCCGUUCGGAUCUGCACUUC | 2.2
GUCCUGUGCUACACAUCGUAUGUACCGAAUCGGGAAAAAGGGAAAGGGUUUUUUUGGGAAAGUAUUAUGUUACGCCGUUCGGAUCUGCAC | -0.23
CCUCAAGUCCUGUGCUACACAUCGUAUGUACCGAAUCGGAGGGGAGGAGGGGAAAGUAUUAUGUUACGCCGUUCGGAUCUGCACUUCCAG | -0.56
CCUGUGCUACACAUCGUAUGUACCGAAUCGGUUUUUUUGGGUUUUUUUGGGUUUUUUUGGAAAGUAUUAUGUUACGCCGUUCGGAUCUGC | -1.24
UGGGAGGUGGAUUUUGUUUAUUUUUUUAGCUCAUUUCCAGGGGUGGGAAUUUUUUUUUCAUAUGUGUCAUGAAUAAAGUUGUUUUUGAAA | 4.34
AAGUCCUGUGCUACACAUCGUAUGUACCGAAUCAAAUUUAAACCCCCAAAUUUAAAAAAGUAUUAUGUUACGCCGUUCGGAUCUGCACUU | -0.664

Study 6
Target: Cyclic AMP-responsive element-binding protein 1, full length (CREB1, Homo sapiens, UniProt P16220, residues 1-327)
Chain of UniProt P16220 (whole entry, looked up): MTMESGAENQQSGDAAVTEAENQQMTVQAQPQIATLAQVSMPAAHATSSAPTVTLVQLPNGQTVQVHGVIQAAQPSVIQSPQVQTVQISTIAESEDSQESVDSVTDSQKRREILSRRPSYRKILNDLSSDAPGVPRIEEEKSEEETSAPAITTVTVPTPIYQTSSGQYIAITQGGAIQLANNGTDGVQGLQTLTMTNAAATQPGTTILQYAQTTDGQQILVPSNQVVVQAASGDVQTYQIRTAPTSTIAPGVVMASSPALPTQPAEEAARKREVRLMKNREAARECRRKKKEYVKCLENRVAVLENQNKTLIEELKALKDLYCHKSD
Method: protein-binding microarray
Form: hairpin DNA
Medium: in vitro
Tested at: not given
Notes: whole hairpin DNA, median over replicate spots
Relative to: not given
Reading: higher = stronger binding
Strand | median fluorescence [a.u.]
GAGGCCGACGCGGTCGTGCCTCCTGGCACGACCGCGTCGGCCTCACACTC (5mC at 9 15 29 35) | 2980
GAGGCCGGATGGCGTCAGCCTCCTGGCTGACGCCATCCGGCCTCACACTC (5mC at 33) | 15000
GAGGCCGGCTTACGTCAGCCTCCTGGCTGACGTAAGCCGGCCTCACACTC | 7860
GAGGCCGACGACGCCGTGCCTCCTGGCACGGCGTCGTCGGCCTCACACTC (5mC at 9 14 15 29 35) | 3670
GAGGCCGCCGACGTCGTGCCTCCTGGCACGACGTCGGCGGCCTCACACTC (5mC at 9 15 29 35) | 3900
GAGGCCGGATGACGTCGGCCTCCTGGCCGACGTCATCCGGCCTCACACTC (5mC at 16) | 7190
GAGGCCGGCTGACGTCAGCCTCCTGGCTGACGTCAGCCGGCCTCACACTC (5mC at 16) | 6680
GAGGCCGGCTGACGTAAGCCTCCTGGCTTACGTCAGCCGGCCTCACACTC | 9310
GAGGCCGGATGACTTCAGCCTCCTGGCTGAAGTCATCCGGCCTCACACTC | 2860
GAGGCCGACGAGGTCGTGCCTCCTGGCACGACCTCGTCGGCCTCACACTC (5mC at 9 15 29 35) | 2690
GAGGCCTGATGACGTCAGCCTCCTGGCTGACGTCATCAGGCCTCACACTC | 27600
GAGGCCGGATGACGTCGGCCTCCTGGCCGACGTCATCCGGCCTCACACTC (5mC at 28) | 14900
GAGGCCGGCGACGTCGTGCCTCCTGGCACGACGTCGCCGGCCTCACACTC (5mC at 9 15 29 35 37) | 4280
GAGGCCGCCGACGTCGTGCCTCCTGGCACGACGTCGGCGGCCTCACACTC (5mC at 8 9 15 29 35) | 4300
GAGGCCGGATGACGTCAGCCTCCTGGCTGACGTCATCCGGCCTCACACTC (5mC at 13 31) | 3330
GAGGCCGGCTGACGTCAGCCTCCTGGCTGACGTCAGCCGGCCTCACACTC (5mC at 34) | 5370
GAGGCCGCGGACGTCGTGCCTCCTGGCACGACGTCCGCGGCCTCACACTC (5mC at 15 29 35) | 3330

Study 7
Target: Histone acetyltransferase KAT6A, winged helix 2, GST fusion (KAT6A, Homo sapiens, UniProt Q92794, residues 85-181)
Method: protein binding microarray
Form: double-stranded DNA, one strand shown
Medium: in vitro
Tested at: not given
Notes: 8-mer, flanks averaged, mean of 2 arrays, mostly near background
Relative to: not given
Reading: higher = stronger binding
Construct (chain): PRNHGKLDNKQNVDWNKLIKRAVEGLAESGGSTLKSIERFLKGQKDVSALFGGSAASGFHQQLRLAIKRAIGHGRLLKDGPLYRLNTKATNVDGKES
Strand | E-score
TCTGCGCA | 0.0247
CATGGCGC | 0.02
CGATAAAG | -0.0193
ATGTATCG | -0.026
GGGAGTCA | -0.132
ACGCGAGT | 0.0175
ACCGTAAA | -0.15
ATAATCGC | 0.0739
GCCCAATA | 0.00613
CTTGGCCA | 0.00154
ACGTCACG | -0.168
TGCAGCCA | 0.115
ACTTAAAC | -0.00653
CTCCGCAA | 0.0324
GGGACTAA | 0.101
GCAGCGGA | 0.121

A few entries again (study 7):
Strand | E-score
CATGGCGC | 0.02
TCTGCGCA | 0.0247
TGCAGCCA | 0.115
CTTGGCCA | 0.00154
ACCGTAAA | -0.15
CTCCGCAA | 0.0324
GGGAGTCA | -0.132
GCCCAATA | 0.00613
ACTTAAAC | -0.00653
CGATAAAG | -0.0193
